Measurements of several laboratories.
Each numbered part is a random draw from the data of one study; scales do not carry over between parts. Several values in a cell are separate wells, animals, samples, runs or records.
Sequence of UniProt P35590 (whole entry, looked up): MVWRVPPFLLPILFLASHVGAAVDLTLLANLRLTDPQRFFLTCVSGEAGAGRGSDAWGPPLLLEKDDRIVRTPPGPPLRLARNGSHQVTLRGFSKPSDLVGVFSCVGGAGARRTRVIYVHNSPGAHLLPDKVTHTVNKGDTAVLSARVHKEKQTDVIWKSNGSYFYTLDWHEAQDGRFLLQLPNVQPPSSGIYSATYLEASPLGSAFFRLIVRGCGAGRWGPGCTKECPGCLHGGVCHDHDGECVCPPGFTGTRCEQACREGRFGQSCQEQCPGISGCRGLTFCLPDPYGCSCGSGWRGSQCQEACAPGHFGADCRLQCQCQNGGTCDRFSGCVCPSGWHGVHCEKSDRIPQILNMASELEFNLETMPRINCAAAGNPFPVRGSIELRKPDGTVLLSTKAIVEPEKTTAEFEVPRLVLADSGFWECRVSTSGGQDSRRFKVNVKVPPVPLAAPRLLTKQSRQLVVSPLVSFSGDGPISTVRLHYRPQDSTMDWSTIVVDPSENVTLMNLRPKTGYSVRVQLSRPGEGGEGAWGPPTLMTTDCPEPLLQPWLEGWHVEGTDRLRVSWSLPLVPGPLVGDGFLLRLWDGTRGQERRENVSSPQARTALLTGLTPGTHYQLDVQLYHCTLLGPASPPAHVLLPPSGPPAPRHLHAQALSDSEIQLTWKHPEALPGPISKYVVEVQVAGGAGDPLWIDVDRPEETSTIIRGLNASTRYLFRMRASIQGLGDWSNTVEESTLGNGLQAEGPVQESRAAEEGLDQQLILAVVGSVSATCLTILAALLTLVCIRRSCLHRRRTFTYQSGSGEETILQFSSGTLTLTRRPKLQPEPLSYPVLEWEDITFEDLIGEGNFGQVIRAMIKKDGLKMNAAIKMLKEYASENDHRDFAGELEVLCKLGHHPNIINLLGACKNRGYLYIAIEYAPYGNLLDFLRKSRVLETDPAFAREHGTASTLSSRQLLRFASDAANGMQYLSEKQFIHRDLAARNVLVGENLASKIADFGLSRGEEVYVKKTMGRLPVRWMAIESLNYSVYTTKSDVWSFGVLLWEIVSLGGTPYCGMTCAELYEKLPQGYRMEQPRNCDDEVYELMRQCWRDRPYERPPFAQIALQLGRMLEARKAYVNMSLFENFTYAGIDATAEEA
Sequence of UniProt Q96D53 (whole entry, looked up): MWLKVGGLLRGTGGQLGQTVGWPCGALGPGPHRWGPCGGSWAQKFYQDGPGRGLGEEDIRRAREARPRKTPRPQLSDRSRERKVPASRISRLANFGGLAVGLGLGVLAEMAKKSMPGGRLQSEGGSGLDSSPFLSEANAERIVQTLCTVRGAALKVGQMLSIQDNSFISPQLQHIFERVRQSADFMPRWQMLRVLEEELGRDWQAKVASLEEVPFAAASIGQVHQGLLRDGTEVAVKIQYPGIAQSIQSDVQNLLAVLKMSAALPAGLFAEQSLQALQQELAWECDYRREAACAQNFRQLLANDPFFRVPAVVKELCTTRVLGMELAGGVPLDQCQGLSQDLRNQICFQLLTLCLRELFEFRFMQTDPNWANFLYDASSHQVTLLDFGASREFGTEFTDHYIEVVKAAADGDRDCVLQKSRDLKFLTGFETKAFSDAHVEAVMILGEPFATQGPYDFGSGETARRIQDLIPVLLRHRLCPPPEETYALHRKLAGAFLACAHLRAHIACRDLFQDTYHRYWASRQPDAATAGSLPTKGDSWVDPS
Sequence of UniProt P15735 (whole entry, looked up): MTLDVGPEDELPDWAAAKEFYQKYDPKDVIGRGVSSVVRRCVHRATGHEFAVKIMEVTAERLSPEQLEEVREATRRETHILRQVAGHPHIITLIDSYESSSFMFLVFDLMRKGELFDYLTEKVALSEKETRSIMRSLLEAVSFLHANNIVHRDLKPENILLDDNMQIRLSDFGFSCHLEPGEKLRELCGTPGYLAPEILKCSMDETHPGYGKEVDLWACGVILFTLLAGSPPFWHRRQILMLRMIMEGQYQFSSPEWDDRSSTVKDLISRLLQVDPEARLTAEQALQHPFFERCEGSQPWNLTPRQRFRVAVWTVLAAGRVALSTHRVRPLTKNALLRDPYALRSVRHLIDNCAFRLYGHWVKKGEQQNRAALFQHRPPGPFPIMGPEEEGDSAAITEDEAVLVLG
Sequence of UniProt O95747 (whole entry, looked up): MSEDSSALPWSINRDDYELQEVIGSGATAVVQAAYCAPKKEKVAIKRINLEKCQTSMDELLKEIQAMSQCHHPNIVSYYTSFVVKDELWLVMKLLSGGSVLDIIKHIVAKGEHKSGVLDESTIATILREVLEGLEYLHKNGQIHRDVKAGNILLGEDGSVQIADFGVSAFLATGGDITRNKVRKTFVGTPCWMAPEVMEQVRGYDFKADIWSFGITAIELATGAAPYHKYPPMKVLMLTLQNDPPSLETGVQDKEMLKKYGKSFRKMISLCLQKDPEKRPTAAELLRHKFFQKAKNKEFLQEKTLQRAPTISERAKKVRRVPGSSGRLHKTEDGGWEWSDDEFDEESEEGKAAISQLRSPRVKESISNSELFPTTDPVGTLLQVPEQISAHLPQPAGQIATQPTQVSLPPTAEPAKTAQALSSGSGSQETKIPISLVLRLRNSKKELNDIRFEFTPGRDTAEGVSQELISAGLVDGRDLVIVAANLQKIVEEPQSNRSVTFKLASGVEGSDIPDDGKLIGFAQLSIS

Set 1
SMILES: CC(C)n1cnc(-c2ccc(F)cc2)c1-c1ncc(C(=O)Nc2ccc(N3CCN(C)CC3)cc2)[nH]1
Species: idiopathic pulmonary fibrosis patients
test | conditions | adverse event incidence
phase 2a trial, refers to: hepatic enzyme abnormal | 60 mg once daily, grade 4 | 0%
phase 2a trial, refers to: proteinuria | dose not given, grade 3, all arms pooled | 0%
phase 2a trial, refers to: infection | 60 mg once daily, grade 2 | 0%
phase 2a trial, refers to: infection | 30 mg once daily, grade 4 | 0%
phase 2a trial, refers to: liver injury | 30 mg once daily, grade 1 | 0%
phase 2a trial, refers to: immunoglobulins increased | dose not given, grade 3, all arms pooled | 0%
phase 2a trial, refers to: carotid intima-media thickening | 30 mg once daily, grade 4 | 0%
phase 2a trial, refers to: gingivitis | dose not given, grade 5, all arms pooled | 0%
 | dose not given, ventricular extrasystoles grade 5 | 0%
phase 2a trial, refers to: synovitis | 60 mg once daily, grade 4 | 0%
 | dose not given, gastritis grade 5 | 0%

Set 2
Target: Serine/threonine-protein kinase ULK1 (ULK1, Homo sapiens, UniProt O75385)
Sequence of UniProt O75385 (whole entry, looked up): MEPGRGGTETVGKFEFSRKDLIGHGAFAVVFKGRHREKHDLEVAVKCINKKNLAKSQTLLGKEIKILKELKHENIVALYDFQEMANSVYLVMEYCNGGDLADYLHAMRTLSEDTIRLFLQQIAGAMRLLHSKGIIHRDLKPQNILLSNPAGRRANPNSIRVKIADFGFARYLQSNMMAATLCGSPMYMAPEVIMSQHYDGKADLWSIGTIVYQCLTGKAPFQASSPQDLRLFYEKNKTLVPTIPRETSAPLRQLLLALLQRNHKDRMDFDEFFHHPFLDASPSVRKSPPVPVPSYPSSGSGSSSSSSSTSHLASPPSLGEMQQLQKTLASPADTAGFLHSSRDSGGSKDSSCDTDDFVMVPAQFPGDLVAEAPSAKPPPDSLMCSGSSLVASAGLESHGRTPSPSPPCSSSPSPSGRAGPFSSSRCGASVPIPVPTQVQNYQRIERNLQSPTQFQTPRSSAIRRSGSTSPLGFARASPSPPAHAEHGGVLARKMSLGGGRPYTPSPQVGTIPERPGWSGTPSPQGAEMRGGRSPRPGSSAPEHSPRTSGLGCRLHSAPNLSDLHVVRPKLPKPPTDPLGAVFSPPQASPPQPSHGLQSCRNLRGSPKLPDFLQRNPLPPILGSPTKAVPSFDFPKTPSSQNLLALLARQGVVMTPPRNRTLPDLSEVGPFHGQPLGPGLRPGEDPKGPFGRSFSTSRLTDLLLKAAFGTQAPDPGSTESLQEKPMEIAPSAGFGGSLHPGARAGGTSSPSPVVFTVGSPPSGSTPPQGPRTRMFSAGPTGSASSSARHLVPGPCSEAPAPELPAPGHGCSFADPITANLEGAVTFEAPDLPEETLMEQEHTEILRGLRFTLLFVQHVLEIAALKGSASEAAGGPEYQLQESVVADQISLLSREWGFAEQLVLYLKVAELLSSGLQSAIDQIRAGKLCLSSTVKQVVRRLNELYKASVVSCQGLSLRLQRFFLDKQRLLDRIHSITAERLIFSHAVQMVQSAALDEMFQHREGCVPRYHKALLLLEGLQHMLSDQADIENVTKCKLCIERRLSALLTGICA
Observed: enzyme activity
Action: inhibitor
Concentration: 0.5 µM
Reference: control
SMILES | remaining activity [%]
CC(C)n1cnc2c(Nc3cccc(Cl)c3)nc(NCCO)nc21 | 77.6
CNc1cc2c(Nc3cccc(Br)c3)ncnc2cn1 | 98.8
CCCCc1c(-c2ccc(O)cc2)[nH]c2nccnc12 | 82.5
O=c1c(-c2ccc(F)cc2)c(-c2ccncc2)[nH]n1-c1ccc(Cl)cc1 | 103
CC(C)(C)c1nc2c3cc[nH]c(=O)c3c3cc(F)ccc3c2[nH]1 | 12.8
O=C(O)/C=C/c1cc(Br)c(Br)c(Br)c1Br | 108
C[C@@H](N)[C@H]1CC[C@H](C(=O)Nc2ccncc2)CC1 | 59.3
NC(=O)c1ccc(-c2nc(-c3ccc4c(c3)OCCO4)c(-c3ccccn3)[nH]2)cc1 | 103
CC(C)N(CCC(=O)c1ccc2ccccc2c1)Cc1ccccc1 | 104
CCN(CC)CCCCN1c2ccccc2Oc2ccc(Cl)cc21 | 99.8
O=C1NC(=O)/C(=C/c2ccc3c(c2)OC(F)(F)O3)S1 | 100

Set 3
Cell line: A-375
Concentration: 100 µM
Time: 36 h
SMILES | viability
CCC(=O)OCC(=O)[C@@]1(OC(=O)CC)[C@@H](C)C[C@H]2[C@@H]3CCC4=CC(=O)C=C[C@]4(C)[C@@]3(Cl)[C@@H](O)C[C@@]21C | 68.2%
CS(=O)(=O)c1ccc([C@@H](O)[C@@H](CO)NC(=O)C(Cl)Cl)cc1 | 106%
COc1ccc(CN=c2[nH]c(N3CCC[C@H]3CO)ncc2C(=O)NCc2ncccn2)cc1Cl | 33.1%
Cc1oncc1C(=O)Nc1ccc(C(F)(F)F)cc1 | 61.5%
CC(C)(C#N)c1cc(Cn2cncn2)cc(C(C)(C)C#N)c1 | 103%
Nc1nc2[nH]cc(CCc3ccc(C(=O)N[C@@H](CCC(=O)O)C(=O)O)cc3)c2c(=O)[nH]1 | 56.4% and 69.3%
NC(=O)c1ncn([C@@H]2O[C@H](CO)[C@@H](O)[C@H]2O)n1 | 100%
Nc1nc(Cl)nc2c1ncn2[C@H]1C[C@H](O)[C@@H](CO)O1 | 23.8%
COc1cc(CCC(=O)O)ccc1O | 109%
C[C@H]1C[C@H]2[C@@H]3CCC4=CC(=O)C=C[C@]4(C)[C@@]3(F)[C@@H](O)C[C@]2(C)[C@@]1(O)C(=O)CO | 90.4%
C[C@H](N)[C@H](O)c1cccc(O)c1 | 129%
C#C[C@]1(O)CC[C@H]2[C@@H]3CCC4=Cc5oncc5C[C@]4(C)[C@H]3CC[C@@]21C | -0.307%
COc1cc2c(N3CCN(C(=O)Nc4ccc(OC(C)C)cc4)CC3)ncnc2cc1OCCCN1CCCCC1 | 4.58%
O=C(Nc1ccc(O)cc1)c1ccccc1O | 91.9%

Set 4
SMILES: O=C(NC[C@@H]1[C@H]2CN(C(=O)OCc3cc(C(F)(F)F)cc(C(F)(F)F)c3)C[C@@H]12)c1ccc2[nH]nnc2c1
Observed: cell-free assay
Technique: competition with immobilised ligand
Concentration: 1 µM
target | remaining binding [%]
Tyrosine-protein kinase receptor Tie-1 (TIE1, Homo sapiens, UniProt P35590) | 77
Mitogen-activated protein kinase kinase kinase 10 (MAP3K10, Homo sapiens, UniProt Q02779) | 83
G protein-coupled receptor kinase 4 (GRK4, Homo sapiens, UniProt P32298) | 100
Phosphatidylinositol 4,5-bisphosphate 3-kinase catalytic subunit alpha isoform (PIK3CA, Homo sapiens, UniProt P42336, C420R) | 95
5'-AMP-activated protein kinase catalytic subunit alpha-2 (PRKAA2, Homo sapiens, UniProt P54646) | 100
Macrophage-stimulating protein receptor (MST1R, Homo sapiens, UniProt Q04912) | 100
Epidermal growth factor receptor (EGFR, Homo sapiens, UniProt P00533) | 99
Serine/threonine-protein kinase ULK3 (ULK3, Homo sapiens, UniProt Q6PHR2) | 99
Atypical kinase COQ8B, mitochondrial (COQ8B, Homo sapiens, UniProt Q96D53) | 94
Tyrosine-protein kinase JAK2, JH1 (JAK2, Homo sapiens, UniProt O60674) | 100
Mitogen-activated protein kinase 9 (MAPK9, Homo sapiens, UniProt P45984) | 100
Phosphorylase b kinase gamma catalytic chain, liver/testis isoform (PHKG2, Homo sapiens, UniProt P15735) | 100
Serine/threonine-protein kinase Nek1 (NEK1, Homo sapiens, UniProt Q96PY6) | 44
Mitogen-activated protein kinase kinase kinase 9 (MAP3K9, Homo sapiens, UniProt P80192) | 100
Serine/threonine-protein kinase OSR1 (OXSR1, Homo sapiens, UniProt O95747) | 85
High affinity nerve growth factor receptor (NTRK1, Homo sapiens, UniProt P04629) | 85
